Results of several laboratories.
“And” joins repeats or separate records; there may be more than shown. ± gives the spread as reported.
MT-CYB/UQCRFS1: MT-CYB/UQCRFS1 (Homo sapiens, UniProt P00156+P47985)
T1: RNA aptamer; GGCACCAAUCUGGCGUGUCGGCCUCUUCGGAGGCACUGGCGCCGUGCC

Compound	tested on	assay	test system	setting	scale	quantity	result
OC[C@H]1OC(O)[C@H](O)[C@@H](O)[C@@H]1O (some centres unmarked)	Hexokinase-3 (HK3, Homo sapiens, UniProt P52790, E254A)	substrate inhibition		mutant E254A, partial substrate inhibition model, together with: ATP 20 mM		kcat	78 ± 4 s⁻¹
CC(=O)N[C@@H](CO)C(=O)N[C@@H](CC(C)C)C(=O)N[C@@H](CCC(=O)O)C(=O)N[C@@H](CCC(=O)O)C(=O)N1CCC[C@H]1C(=O)N[C@@H](Cc1c[nH]cn1)C(=O)N[C@@H](CO)C(=O)N1CCC[C@H]1C(=O)N[C@@H](CCC(=O)O)C(=O)N[C@H](C(=O)NCC(=O)N[C@@H](CCC(=O)O)C(=O)N[C@@H](CCCCN)C(=O)N[C@H](C(=O)N[C@H](C(=O)N[C@@H](C)C(=O)NCC(=O)N[C@@H](CCC(=O)O)C(=O)N[C@H](C(=O)N[C@@H](CC(N)=O)C(N)=O)C(C)C)C(C)C)C(C)C)[C@@H](C)O	Kelch-like ECH-associated protein 1, Kelch domain (KEAP1, Homo sapiens, UniProt Q14145)	binding, ITC		pH 7, 298.15 K		ΔG	-8.97 ± 0.05 kcal/mol
CN(CCO)c1ccc(/C=C(\C#N)c2ccc(C#N)cc2)cc1	T1, RNA aptamer	fluorescence titration, Hill fit		apparent		Kd	1140 nM
COc1cc(F)ccc1-c1ncnc(Nc2cccc(C[S@](C)(=N)=O)c2)n1	LIM domain kinase 1 (LIMK1, Homo sapiens, UniProt P53667)	kinase activity		10 µM, together with: 10 µM ATP		remaining activity	64%
NC(=O)c1ccc[n+]([C@@H]2O[C@H](COP(=O)([O-])OP(=O)(O)OC[C@H]3O[C@@H](n4cnc5c(NCCNC(=O)CCCCCNC(=O)CCCCCNC(=O)CCCC[C@@H]6SC[C@@H]7NC(=O)N[C@@H]76)ncnc54)[C@H](O)[C@@H]3O)[C@@H](O)[C@H]2O)c1	PARP1 (Homo sapiens, UniProt P09874)	substrate, DELFIA auto-modification				apparent Km	31 µM
O=c1nc(SCc2cc(F)cc(C(F)(F)F)c2)nc(SCc2ccc3nc(Cl)ccc3c2)[nH]1	TOP2A (Homo sapiens, UniProt P11388)	DNA cleavage		7.8 µM, together with: etoposide 50 µM		linear DNA	16.9%
C[C@@](Cc1ccc(O)c(O)c1)(NN)C(=O)O	THP-1	pyroptotic LDH release		2 µM, 40 min, together with: LPS then nigericin		inhibition	31.9%
Nc1ccc(C(=O)O)cc1	BEST1, with wild-type BEST1 (Homo sapiens, UniProt O76090, A243T)	whole-cell patch clamp	HEK293 co-expressing WT and A243T mutant	concentration not given, membrane potential -60 mV		current density	-14.4 pA/pF and -16 pA/pF and -5.11 pA/pF and -15.3 pA/pF and -19.3 pA/pF and -12.4 pA/pF and -3.01 pA/pF
CCO[C@H](COc1ccc(C(F)(F)F)cc1)CSc1ccc(OCC(=O)O)c(C)c1	Peroxisome proliferator-activated receptor alpha (Rattus norvegicus, UniProt P37230)	receptor activation, agonist		species rat	relative to: internal control agonist	Emax	20%
O=CNc1ccc(Br)cc1C=O	Dehaloperoxidase B, ferric (Amphitrite ornata, UniProt Q9NAV7)	product, HPLC		together with: 5-bromoindole 500 µM, H2O2 50 µM		share of total products	0.6%
Nc1nc2[nH]cc(CCc3ccc(C(=O)N[C@@H](CCC(=O)O)C(=O)O)cc3)c2c(=O)[nH]1	TYMS (Homo sapiens, UniProt P04818)	from literature Kd				binding efficiency index	15
Cc1cc(CN=C(N)NC(N)=S)c(C)cc1CN=C(N)NC(N)=S	Protein lin-28 homolog A (Mus musculus, UniProt Q8K3Y3)					Hill slope	-2.3
Nc1ncnc2c1ncn2[C@@H]1O[C@H](COP(=O)(O)OP(=O)(O)OP(=O)(O)O)[C@@H](O)[C@H]1O	P2X purinoceptor 2 (P2rx2, Rattus norvegicus, UniProt P49653, K308A/K69A)	agonist	cells expressing K308A-K69A-WT concatemer			Hill coefficient	1.4 ± 0.2
O=S(=O)(Nc1nccs1)c1ccc(N=NN(O)c2ccccc2)cc1	α-glucosidase, rat intestine	enzyme activity		120 µg/mL, together with: 4-nitrophenyl α-D-glucopyranoside		inhibition	22.5 ± 1.38%
NC(=O)NOCCCCCCCCCCCC[P+](c1ccccc1)(c1ccccc1)c1ccccc1.O=C([O-])C(F)(F)F	MT-CYB/UQCRFS1	complex III-dependent respiration, Seahorse XF96	HCT-116	2.5 µM, 24 h	relative to: control	oxygen consumption rate	51.3 ± 4.32%
c1ccc(C(NCc2cccnc2)(c2ccccc2)c2ccccc2)cc1	KCNQ1 (Homo sapiens, UniProt P51787, E160R/R231E)				relative to: wild type	potency increase	~120 fold
CC(C)CC(=O)N[C@H](C(=O)N[C@H](C(=O)N[C@@H](CC(C)C)[C@@H](O)CC(=O)N[C@@H](C)C(=O)N[C@@H](CC(C)C)[C@@H](O)CC(=O)NCCOCCC(=O)NCCCC[C@H](NC(=O)CN1CCN(CC(=O)O)CCN(CC(=O)O)CC1)C(=O)O)C(C)C)C(C)C	Cathepsin D (CTSD, Homo sapiens, UniProt P07339)	surface plasmon resonance				dissociation rate constant	0.000744 s⁻¹
CC(=O)N([O-])CCCCCNC(=O)CCC(=O)N([O-])CCCCCNC(=O)CCC(=O)N([O-])CCCCCN.[Fe+3]	uncharacterized protein (Bordetella pertussis, UniProt Q7VXW9)	siderophore binding, fluorescence quenching titration		pH 6.5, together with: ferric siderophore		maximum fluorescence quenching	~40%

Compound	tested on	assay	test system	setting	scale	quantity	result
Nc1nc2c(ncn2[C@@H]2O[C@H](COP(=O)(O)O)[C@@H](O)[C@H]2O)c(=O)[nH]1	GUK1 (Homo sapiens, UniProt Q16774)	enzyme activity, NADH-coupled		15.62 µM, together with: NaCl 150 mM		reaction velocity	0.0342 µM/s and 0.0278 µM/s and 0.0459 µM/s
NC(=O)NOCCCCCCCCCCCCCC[P+](c1ccccc1)(c1ccccc1)c1ccccc1.O=C([O-])C(F)(F)F	MT-CYB/UQCRFS1	complex III-dependent respiration, Seahorse XF96	HCT-116	4 µM, 24 h	relative to: control	oxygen consumption rate	29.8 ± 2.44%
CCOc1ccc(NC(=O)O[C@H](Cn2nc(C(C)C)cc2C(C)C)C(C)C)cc1	Neuronal acetylcholine receptor; alpha4/beta2, (α4)2(β2)3 stoichiometry (Homo sapiens, UniProt P17787+P43681)	ion current, potentiator, TEVC		1 µM, high-sensitivity (α4)2(β2)3, together with: ACh 10 µM	relative to: ACh alone	ACh peak current	94 ± 6%
c1cc(CN2CCOCC2)cc(Nc2nccc(NCCc3cnc[nH]3)n2)c1	16-kinase panel	radiometric		1 µM, ATP at Km	below 10% of control	number of kinases inhibited	1
NCCCCC(=O)O	SLC6A6 (Homo sapiens, UniProt P31641, Y138A)	binding, microscale thermophoresis		250 µM, room temperature, together with: 50 nM labelled protein	higher = more binding	normalised MST signal	-0.00088
CCCC(CCC)c1nc2c(Nc3ccc(C#CCCCCCCCCN)cc3)nc3ccccc3c2[nH]1	OPRD1 (Homo sapiens, UniProt P41143)	PDSP screening				off-target affinity	inactive
NC(=O)NOCCCCCCCCCCCCCCCC[P+](c1ccccc1)(c1ccccc1)c1ccccc1.O=C([O-])C(F)(F)F	MT-CYB/UQCRFS1	complex III-dependent respiration, Seahorse XF96	HCT-116	0.6 µM, 24 h	relative to: control	oxygen consumption rate	80.1%
OC[C@H]1OC(O)[C@H](O)[C@@H](O)[C@@H]1O (some centres unmarked)	hexokinase, yeast	substrate		pH 8.0, 25 °C, MgCl2 1.5 mM, together with: ATP varied		Kia	3280 µM
COc1cccc(N2CCN(C3=Nc4c(F)cccc4[C@H](CC(=O)O)N3c3cc(C(F)(F)F)ccc3OC)CC2)c1	THP-1	pyroptotic LDH release		2 µM, 40 min, together with: LPS then nigericin		inhibition	9.24%
CN1CCN(c2cc(-c3ccncc3)c(-c3ccc4ccccc4c3)nn2)CC1	PTAFR (Homo sapiens, UniProt P25105)	antagonist, FLIPR		10 µM		inhibition	-0.5%
CCCN(O)N=Nc1ccc(S(=O)(=O)Nc2nccs2)cc1	α-glucosidase, rat intestine	enzyme activity		20 µg/mL, together with: 4-nitrophenyl α-D-glucopyranoside		inhibition	15 ± 1.26%
NC/C(=C\F)COc1cccc(Cn2c(=S)[nH]c(=O)c3[nH]cnc32)c1	Myeloperoxidase (MPO, Homo sapiens, UniProt P05164)	H2O2 consumption, inhibitor, H2O2 electrode		10 µM, 0.2 s		H2O2 concentration	-0.113 µM
NC(=O)NOCCCCCCCCCC[P+](c1ccccc1)(c1ccccc1)c1ccccc1.O=C([O-])C(F)(F)F	MT-CYB/UQCRFS1	complex III-dependent respiration, Seahorse XF96	HCT-116	1 µM, 24 h	relative to: control	oxygen consumption rate	95.2 ± 7.14%
CC[C@@H]1[C@H](F)C(=O)N[C@@H]1COc1nccc2cc(C(N)=O)c(OC)cc12	STE20-related kinase adapter protein beta (Homo sapiens, UniProt Q9C0K7)	ATP probe binding, KiNativ profiling, refers to: Lys1 probe site	THP-1 cell lysate	0.01 mM		inhibition	-4.9%
O=C(NCCCNc1nc(Nc2cccc(CN3CCOCC3)c2)ncc1C1CC1)C1CCC1	16-kinase panel	radiometric		1 µM, ATP at Km	below 10% of control	number of kinases inhibited	13
C=CC(=O)N1CCC(C(=O)NCC(=O)N2CCN(c3nc(-c4cnc(N)nc4C(F)F)nc(N4CCOCC4)n3)CC2)CC1	TRPM6 (Homo sapiens, UniProt Q9BX84)	KINOMEscan		1 µM		remaining binding	71%
CCN1CCC[C@H]1CNC(=O)c1c(O)c(Cl)cc(Cl)c1OC	G-protein coupled receptor 62 (GPR62, Homo sapiens, UniProt Q9BZJ7)	β-arrestin recruitment, TANGO luminescence, refers to: GPR62		concentration not given	relative to: basal luminescence	log2 fold change	0.415

A few entries again:
Compound	tested on	assay	test system	setting	scale	quantity	result
NC(=O)c1ccc[n+]([C@@H]2O[C@H](COP(=O)([O-])OP(=O)(O)OC[C@H]3O[C@@H](n4cnc5c(NCCNC(=O)CCCCCNC(=O)CCCCCNC(=O)CCCC[C@@H]6SC[C@@H]7NC(=O)N[C@@H]76)ncnc54)[C@H](O)[C@@H]3O)[C@@H](O)[C@H]2O)c1	PARP1 (Homo sapiens, UniProt P09874)	substrate, DELFIA auto-modification				apparent Km	31 µM
O=S(=O)(Nc1nccs1)c1ccc(N=NN(O)c2ccccc2)cc1	α-glucosidase, rat intestine	enzyme activity		120 µg/mL, together with: 4-nitrophenyl α-D-glucopyranoside		inhibition	22.5 ± 1.38%
CCCC(CCC)c1nc2c(Nc3ccc(C#CCCCCCCCCN)cc3)nc3ccccc3c2[nH]1	OPRD1 (Homo sapiens, UniProt P41143)	PDSP screening				off-target affinity	inactive
OC[C@H]1OC(O)[C@H](O)[C@@H](O)[C@@H]1O (some centres unmarked)	hexokinase, yeast	substrate		pH 8.0, 25 °C, MgCl2 1.5 mM, together with: ATP varied		Kia	3280 µM
